Measured values pooled from the literature.
Parts stem from different laboratories: compare values within a part only. Values joined by “and” are separate records of one study, mostly repeats; a detail may differ.
Chain of UniProt P10721 (whole entry, unmodified, looked up): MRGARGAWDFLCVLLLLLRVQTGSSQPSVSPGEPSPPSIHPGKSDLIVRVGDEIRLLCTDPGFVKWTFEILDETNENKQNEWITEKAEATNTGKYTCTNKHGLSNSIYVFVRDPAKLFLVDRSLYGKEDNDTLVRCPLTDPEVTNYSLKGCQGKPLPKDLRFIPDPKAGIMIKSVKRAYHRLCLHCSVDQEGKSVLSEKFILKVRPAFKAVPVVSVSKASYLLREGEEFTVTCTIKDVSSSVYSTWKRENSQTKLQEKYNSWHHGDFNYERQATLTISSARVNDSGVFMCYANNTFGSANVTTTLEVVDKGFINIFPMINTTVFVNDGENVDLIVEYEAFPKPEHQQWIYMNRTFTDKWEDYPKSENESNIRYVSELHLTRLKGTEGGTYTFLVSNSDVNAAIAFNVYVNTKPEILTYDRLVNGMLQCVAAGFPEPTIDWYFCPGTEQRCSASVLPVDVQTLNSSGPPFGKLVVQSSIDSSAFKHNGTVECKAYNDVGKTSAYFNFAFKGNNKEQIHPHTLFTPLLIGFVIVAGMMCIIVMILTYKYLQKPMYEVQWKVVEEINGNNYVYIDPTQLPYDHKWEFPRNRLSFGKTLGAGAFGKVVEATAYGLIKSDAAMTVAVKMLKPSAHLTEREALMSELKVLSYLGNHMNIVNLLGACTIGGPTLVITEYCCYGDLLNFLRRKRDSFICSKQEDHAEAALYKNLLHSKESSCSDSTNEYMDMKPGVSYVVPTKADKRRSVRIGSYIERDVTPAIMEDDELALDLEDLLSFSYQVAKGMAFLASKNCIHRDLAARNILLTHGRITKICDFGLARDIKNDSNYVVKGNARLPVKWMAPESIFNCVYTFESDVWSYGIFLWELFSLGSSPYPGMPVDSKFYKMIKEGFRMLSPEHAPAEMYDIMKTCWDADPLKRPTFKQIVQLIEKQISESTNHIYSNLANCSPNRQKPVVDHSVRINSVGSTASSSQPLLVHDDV
Chain of UniProt Q9BX84 (whole entry, looked up): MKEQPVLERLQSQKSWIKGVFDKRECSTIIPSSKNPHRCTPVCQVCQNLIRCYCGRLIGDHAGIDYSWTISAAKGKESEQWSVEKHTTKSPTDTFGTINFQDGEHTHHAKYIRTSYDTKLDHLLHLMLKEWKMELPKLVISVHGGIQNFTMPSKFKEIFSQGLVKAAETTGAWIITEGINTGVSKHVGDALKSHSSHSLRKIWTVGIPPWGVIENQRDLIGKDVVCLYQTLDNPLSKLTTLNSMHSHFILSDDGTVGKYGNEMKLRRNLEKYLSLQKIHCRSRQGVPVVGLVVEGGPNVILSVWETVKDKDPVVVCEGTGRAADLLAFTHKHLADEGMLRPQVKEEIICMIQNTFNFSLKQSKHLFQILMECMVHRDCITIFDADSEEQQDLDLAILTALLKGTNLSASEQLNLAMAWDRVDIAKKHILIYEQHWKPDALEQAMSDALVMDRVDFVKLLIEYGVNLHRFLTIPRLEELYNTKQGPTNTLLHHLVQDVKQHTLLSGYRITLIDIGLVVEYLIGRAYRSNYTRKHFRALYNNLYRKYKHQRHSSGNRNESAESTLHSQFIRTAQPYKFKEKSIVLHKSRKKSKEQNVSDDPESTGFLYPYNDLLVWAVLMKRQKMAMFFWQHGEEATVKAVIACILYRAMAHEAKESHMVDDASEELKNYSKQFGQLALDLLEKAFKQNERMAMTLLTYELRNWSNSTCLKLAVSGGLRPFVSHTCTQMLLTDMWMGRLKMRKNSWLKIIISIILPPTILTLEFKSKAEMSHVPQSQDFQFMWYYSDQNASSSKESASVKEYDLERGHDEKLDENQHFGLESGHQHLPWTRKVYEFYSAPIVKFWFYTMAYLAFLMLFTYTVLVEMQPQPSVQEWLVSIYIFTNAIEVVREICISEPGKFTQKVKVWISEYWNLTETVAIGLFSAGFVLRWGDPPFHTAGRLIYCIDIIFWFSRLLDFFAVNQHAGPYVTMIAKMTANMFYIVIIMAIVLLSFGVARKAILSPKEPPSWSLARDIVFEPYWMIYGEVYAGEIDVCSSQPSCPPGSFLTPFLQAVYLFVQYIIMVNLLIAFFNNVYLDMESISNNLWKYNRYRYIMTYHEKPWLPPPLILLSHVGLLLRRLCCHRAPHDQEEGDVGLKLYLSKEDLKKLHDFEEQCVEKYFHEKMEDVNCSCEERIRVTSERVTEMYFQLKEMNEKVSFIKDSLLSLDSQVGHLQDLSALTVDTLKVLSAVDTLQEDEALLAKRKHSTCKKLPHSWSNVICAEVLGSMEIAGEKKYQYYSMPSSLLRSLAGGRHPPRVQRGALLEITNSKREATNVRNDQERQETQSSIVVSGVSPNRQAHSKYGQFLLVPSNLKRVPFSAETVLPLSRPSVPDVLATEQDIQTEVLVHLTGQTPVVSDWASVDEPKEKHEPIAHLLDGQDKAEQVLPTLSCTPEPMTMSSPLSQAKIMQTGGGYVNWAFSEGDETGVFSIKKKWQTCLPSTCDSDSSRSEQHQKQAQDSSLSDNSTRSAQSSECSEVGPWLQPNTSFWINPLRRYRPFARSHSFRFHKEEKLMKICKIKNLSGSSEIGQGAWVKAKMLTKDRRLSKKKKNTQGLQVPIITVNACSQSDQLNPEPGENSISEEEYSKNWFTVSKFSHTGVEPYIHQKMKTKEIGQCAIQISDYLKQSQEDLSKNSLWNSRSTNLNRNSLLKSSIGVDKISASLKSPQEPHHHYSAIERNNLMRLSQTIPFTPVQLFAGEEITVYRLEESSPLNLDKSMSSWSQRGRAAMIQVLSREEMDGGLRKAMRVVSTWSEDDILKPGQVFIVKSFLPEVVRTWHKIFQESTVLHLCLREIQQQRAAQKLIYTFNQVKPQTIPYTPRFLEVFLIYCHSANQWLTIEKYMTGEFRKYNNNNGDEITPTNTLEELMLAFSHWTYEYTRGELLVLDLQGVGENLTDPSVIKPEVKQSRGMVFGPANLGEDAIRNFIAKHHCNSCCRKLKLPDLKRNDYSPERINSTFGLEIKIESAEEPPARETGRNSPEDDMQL
Chain of UniProt Q13131 (whole entry, looked up): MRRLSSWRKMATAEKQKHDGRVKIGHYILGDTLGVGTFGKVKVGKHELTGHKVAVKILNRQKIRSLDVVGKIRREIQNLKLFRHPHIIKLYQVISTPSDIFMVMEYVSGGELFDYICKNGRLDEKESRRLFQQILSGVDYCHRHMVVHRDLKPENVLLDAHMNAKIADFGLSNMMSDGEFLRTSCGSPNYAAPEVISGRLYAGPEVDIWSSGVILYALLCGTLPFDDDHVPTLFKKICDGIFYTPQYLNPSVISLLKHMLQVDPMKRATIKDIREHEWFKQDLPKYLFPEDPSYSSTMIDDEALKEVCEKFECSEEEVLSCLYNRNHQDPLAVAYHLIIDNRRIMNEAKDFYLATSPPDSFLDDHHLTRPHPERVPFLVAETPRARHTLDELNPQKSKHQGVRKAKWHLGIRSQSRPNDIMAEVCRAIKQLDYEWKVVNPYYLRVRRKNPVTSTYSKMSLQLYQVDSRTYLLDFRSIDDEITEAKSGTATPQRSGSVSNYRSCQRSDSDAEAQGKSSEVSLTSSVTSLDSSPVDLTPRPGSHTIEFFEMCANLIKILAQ
Chain of UniProt Q96NX5 (whole entry, looked up): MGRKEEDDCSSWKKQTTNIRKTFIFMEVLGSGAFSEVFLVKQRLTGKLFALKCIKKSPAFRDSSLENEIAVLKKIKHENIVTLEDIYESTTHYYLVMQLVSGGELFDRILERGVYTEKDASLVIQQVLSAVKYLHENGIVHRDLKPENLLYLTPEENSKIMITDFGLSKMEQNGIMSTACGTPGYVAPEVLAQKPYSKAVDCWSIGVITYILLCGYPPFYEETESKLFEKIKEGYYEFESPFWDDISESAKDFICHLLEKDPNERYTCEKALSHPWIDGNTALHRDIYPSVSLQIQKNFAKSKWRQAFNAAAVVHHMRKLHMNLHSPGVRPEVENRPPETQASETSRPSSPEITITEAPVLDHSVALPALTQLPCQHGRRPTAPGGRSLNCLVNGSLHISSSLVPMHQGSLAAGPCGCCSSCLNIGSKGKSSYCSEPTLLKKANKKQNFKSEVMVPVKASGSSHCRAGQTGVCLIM

Study 1 — method: Incucyte 3D growth; tested at: 30 µM; reading: higher = more growth; endpoint: spheroid area
Compound: CC(C)(C(=O)O)[C@H](NC(=O)Cc1cccc(I)c1)c1ccc2oc(=O)[nH]c2c1
A375; 222.52 h: 1.72e+08 a.u. and 1.64e+08 a.u. and 1.5e+08 a.u. and 1.6e+08 a.u. and 1.54e+08 a.u. and 1.8e+08 a.u.
KP-4; 174 h: 3.46e+07 a.u. and 2.42e+07 a.u. and 2.41e+07 a.u. and 3.09e+07 a.u. and 2.5e+07 a.u. and 1.77e+07 a.u.
MEL-JUSO; 0.52 h: 1.82e+07 a.u. and 1.4e+07 a.u. and 1.44e+07 a.u. and 1.54e+07 a.u. and 1.77e+07 a.u. and 1.98e+07 a.u.

Study 2 — mode: inhibitor; tested at: 10 µM; reference: control; endpoint: remaining activity
Target: Diamine acetyltransferase 1 (Homo sapiens, UniProt P21673)
Target sequence (P21673 1-171): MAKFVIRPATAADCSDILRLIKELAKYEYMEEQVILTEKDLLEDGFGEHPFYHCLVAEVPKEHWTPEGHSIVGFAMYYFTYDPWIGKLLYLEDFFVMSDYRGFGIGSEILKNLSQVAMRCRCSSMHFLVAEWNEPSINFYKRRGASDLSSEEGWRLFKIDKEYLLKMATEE
C=CCc1ccc(O)c(OC)c1: 95.9%
O=C(O)c1ccccc1: 93.8%
CC1=CC[C@@](O)(C(C)C)CC1: 99.5%
O=c1c2cc(O)c(O)cc2oc2cc(O)c([C@@H]3O[C@H](CO)[C@@H](O)[C@H](O)[C@H]3O)c(O)c12: 84.6%

Study 3 — host: human; sample: microsomes or S9; tested at: 2 µM; time: 0.5 h; endpoint: remaining compound
CC(C(=O)N(C)C)S(=O)(=O)N1CCN(C)c2ccncc21 (stereo not shown): > 100%
CC(C)(C)c1cnnn1-c1ccc(C(=O)COC(=O)c2ccccc2)cc1: 0.0746%
CCC[C@@H]1CN(c2nc(N(C)C)nc3c2CCCC3)C[C@H]1NS(C)(=O)=O: 86%
COCCNc1nc(N2CCCC2)nc2nccnc12: 75.6%
CC1CN(Cc2cncs2)CCN1CC(C)(C)O (stereo not shown): 94.2%

Study 4 — read-out: cell-free assay; method: competition with immobilised ligand; tested at: 1 µM; endpoint: remaining binding
Compound: Cc1nccc(COC(=O)N2C[C@@H]3[C@@H](CNC(=O)c4ccc5[nH]nnc5c4)[C@@H]3C2)n1
5'-AMP-activated protein kinase catalytic subunit alpha-1 (PRKAA1, Homo sapiens, UniProt Q13131): 92%
Serine/threonine-protein kinase 32B (STK32B, Homo sapiens, UniProt Q9NY57): 97%
Phosphatidylinositol 5-phosphate 4-kinase type-2 gamma (PIP4K2C, Homo sapiens, UniProt Q8TBX8): 100%
Rhodopsin kinase GRK1 (GRK1, Homo sapiens, UniProt Q15835): 100%
Phosphatidylinositol 4-phosphate 5-kinase type-1 gamma (PIP5K1C, Homo sapiens, UniProt O60331): 93%
Muscle, skeletal receptor tyrosine-protein kinase (MUSK, Homo sapiens, UniProt O15146): 100%
Calcium/calmodulin-dependent protein kinase type 1G (CAMK1G, Homo sapiens, UniProt Q96NX5): 100%
Cyclin-dependent kinase-like 2 (CDKL2, Homo sapiens, UniProt Q92772): 95%
Transient receptor potential cation channel subfamily M member 6 (TRPM6, Homo sapiens, UniProt Q9BX84): 85%
Receptor-type tyrosine-protein kinase FLT3 (FLT3, Homo sapiens, UniProt P36888, F691L/ITD): 79%
Serine/threonine-protein kinase Nek2 (NEK2, Homo sapiens, UniProt P51955): 100%
Mast/stem cell growth factor receptor Kit (KIT, Homo sapiens, UniProt P10721, V559D): 86%
Mast/stem cell growth factor receptor Kit, autoinhibited (KIT, Homo sapiens, UniProt P10721): 79%
Dual specificity testis-specific protein kinase 1 (TESK1, Homo sapiens, UniProt Q15569): 98%
Cyclin-dependent kinase 18 (CDK18, Homo sapiens, UniProt Q07002): 100%
Serine/threonine-protein kinase ULK1 (ULK1, Homo sapiens, UniProt O75385): 93%

Study 5 — cell line: HH; method: CCK-8; endpoint: viability
SMILES: CC(C)(C)c1cnc(CSc2cnc(NC(=O)C3CCN(CCCCCCCCSc4cccc5c4C(=O)N(C4CCC(=O)NC4=O)C5=O)CC3)s2)o1 (stereo not shown)
500 nM: 0%
100 nM: 76.9% and 81.2%
1 nM: 100%
200 nM: 6.87% and 6.41%

Mixed results
C[C@@H]1CN(c2ccc(-c3cc(C(=O)NCCOCCOCCOCCOCCOCCOCCOCCOCCOCCNC(=O)/C=C/c4[nH]cc(C(=O)N[C@@H](CC(N)=O)c5ccc(F)c(Cl)c5)c4-c4ccc(Cl)cc4F)ccc3F)cc2NC(=O)c2c[nH]c(=O)cc2C(F)(F)F)C[C@H](C)N1C — remaining protein level (WD repeat-containing protein 5 (WDR5, Homo sapiens, UniProt P61964); degrader, Jess capillary immunoassay, refers to: WDR5 over vinculin; 25.7 nM, 24 h; reference: DMSO): 78.3% and 84.1% and 78.6%
CCOC(=O)[C@@H]1CSCC(=O)N[C@H](CC)C(=O)N(CC(C)C)CC(=O)N[C@@H](CC(C)C)C(=O)N(C)[C@H](C)C(=O)N(C)[C@@H](C)C(=O)N[C@H](CC(C)C)C(=O)N(C)[C@@H](C)C(=O)N[C@@H](CC(C)C)C(=O)N1C — log k' (60) (PRP-column chromatography): 0.861

For quick reference, copied from above (study 3):
CCC[C@@H]1CN(c2nc(N(C)C)nc3c2CCCC3)C[C@H]1NS(C)(=O)=O: 86%
CC(C(=O)N(C)C)S(=O)(=O)N1CCN(C)c2ccncc21 (stereo not shown): > 100%
CC1CN(Cc2cncs2)CCN1CC(C)(C)O (stereo not shown): 94.2%
COCCNc1nc(N2CCCC2)nc2nccnc12: 75.6%
CC(C)(C)c1cnnn1-c1ccc(C(=O)COC(=O)c2ccccc2)cc1: 0.0746%
